Published values pooled from the literature.
Protocols differ between the studies behind these lines. Values joined by “and” are separate records of one study, mostly repeats; a detail may differ.
Target: Serine/threonine-protein kinase 4 (STK4, Homo sapiens, UniProt Q13043)
Residues used in one study (Q13043 1-487): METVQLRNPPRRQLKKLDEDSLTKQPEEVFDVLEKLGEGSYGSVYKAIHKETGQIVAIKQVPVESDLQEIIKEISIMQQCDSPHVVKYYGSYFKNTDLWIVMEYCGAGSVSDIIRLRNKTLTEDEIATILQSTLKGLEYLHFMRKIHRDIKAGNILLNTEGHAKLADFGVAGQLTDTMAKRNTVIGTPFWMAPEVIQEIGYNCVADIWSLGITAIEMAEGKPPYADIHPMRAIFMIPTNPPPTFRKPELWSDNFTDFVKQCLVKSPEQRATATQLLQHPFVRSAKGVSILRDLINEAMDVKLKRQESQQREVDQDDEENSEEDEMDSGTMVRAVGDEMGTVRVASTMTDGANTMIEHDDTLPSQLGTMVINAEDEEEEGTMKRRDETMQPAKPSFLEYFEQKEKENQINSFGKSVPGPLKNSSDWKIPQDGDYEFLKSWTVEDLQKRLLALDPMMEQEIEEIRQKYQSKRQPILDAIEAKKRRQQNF

| Structure (SMILES) | test | system | conditions | scale | measurement | result |
| --- | --- | --- | --- | --- | --- | --- |
| COCC12C(=O)NC3C4(C(OC)CC1O)C1CC5(O)C(OC)C(O)C(OC(C)=O)(C1C5OC(=O)c1ccccc1)C3(O)C(OC)C24 (stereo not shown) | kinase activity, inhibitor, ProQinase kinase profiling |  | 25 µM | baseline: control | remaining activity | 93% and 97% |
| C=CC(=O)Nc1cccc(-c2cnc3[nH]cc(C(=O)NC(C)(C)C)c3n2)c1 | kinase activity |  | 0.1 µM |  | inhibition | 79% and 80% |
| Cc1cccc(O[C@H]2CCC[C@@H](C(C)CNCc3ccncc3)C2)c1 (relative stereo) | kinase activity, kinome panel screening |  | 10 µM |  | inhibition | -7% |
| CN1CC[C@@H](COc2cnc(C#N)cc2-c2ccn3nc(NC(=O)C4CC4)cc3c2)C1 | enzyme activity, inhibitor |  | 1 µM |  | inhibition | 11% |
| COc1c(OCCCN2CCOCC2)ccc2c1N=C(NC(=O)c1cnc(N)nc1)N1CCN=C21 | kinase activity, inhibitor |  | 1 µM | baseline: untreated control | remaining activity | 112% |
| Cc1ccc(C(=O)Nc2ccc(CN3CCN(C)CC3)c(C(F)(F)F)c2)cc1C#Cc1cnc2cccnn12 | target engagement, NanoBRET | human cells |  |  | upper asymptote | 51.1 |
| NC(=O)[C@@H](O)C[C@H]1CCc2sc3ncnc(O[C@H]4CC[C@H](N5CCOCC5)CC4)c3c21 | enzyme activity, inhibitor |  | 10 µM |  | inhibition | 21% |
| Cc1cnc2nc1Nc1cccc(c1)COC/C=C/COCc1cc(ccc1OCCN1CCOCC1)N2 | cell-free assay |  | 0.1 µM |  | remaining signal | 100% |
| O=C=[N][Ru-4]123([n]4c5ccc(O)cc5c5c6c(c7cc(F)c[n+]1c7c54)C(=O)NC6=O)[S+]1CC[S+]2CC[S+]3CC1 (stereo not shown) | enzyme activity |  | 100 nM, human enzyme, added: 10 µM ATP | baseline: untreated | remaining activity | 78% |
| CC(C)=CC1OC(C)(C)C2C=C3C(=O)C(Cl)=CC(O)C3C3C(O)C4OC4C(=O)C132 (stereo not shown) | cell-free assay, competition with immobilised ligand |  | 10 µM |  | remaining binding | 92% |
| COc1cc(Nc2nccc(-c3cnn4nc(OC)ccc34)n2)cc(C(F)(F)F)c1 | binding, competition with immobilised ligand |  | 1 µM |  | remaining binding | 85% |
| CCN1CCN(Cc2ccc(C(=O)Nc3ccc(C)c(NCc4cnc5[nH]ccc5c4OC)c3)cc2C(F)(F)F)CC1 | binding, competition with immobilised ligand |  | 1 µM |  | remaining binding | 100% |
| CN1CCN(Cc2ccc(-c3ccc(CO[C@H]4CCC[C@@H]4NC(=O)c4cc(-c5cnn(C)c5)cnc4N)cc3)cc2)CC1 | enzyme activity, inhibitor |  | 0.1 µM |  | inhibition | -4% |
| O=C(O)CCC(=O)c1cccc(NS(=O)(=O)c2c[nH]c3ncccc23)c1 | kinase activity, radiometric |  | 10 µM |  | remaining activity | 96% |
| CS(=O)(=O)Nc1cccc(-c2csc3cnc(Nc4ccc(N5CCN(CCCCCOc6cccc7c6C(=O)N(C6CCC(=O)NC6=O)C7=O)CC5)cc4)nc23)c1 (stereo not shown) | probe labelling, inhibitor, KiNativ chemoproteomics | MOLT-4 | 1 µM |  | inhibition | -0.856% |
| COc1ccc(C(=O)/C=C/c2ccccc2-c2c[nH]c3ccc(C#N)cc23)c(O)c1 | enzyme activity, inhibitor |  | 20 µM |  | inhibition | 0% |

A few entries again:
| Structure (SMILES) | test | system | conditions | scale | measurement | result |
| --- | --- | --- | --- | --- | --- | --- |
| O=C=[N][Ru-4]123([n]4c5ccc(O)cc5c5c6c(c7cc(F)c[n+]1c7c54)C(=O)NC6=O)[S+]1CC[S+]2CC[S+]3CC1 (stereo not shown) | enzyme activity |  | 100 nM, human enzyme, added: 10 µM ATP | baseline: untreated | remaining activity | 78% |
| CC(C)=CC1OC(C)(C)C2C=C3C(=O)C(Cl)=CC(O)C3C3C(O)C4OC4C(=O)C132 (stereo not shown) | cell-free assay, competition with immobilised ligand |  | 10 µM |  | remaining binding | 92% |
